Measured values of several laboratories.
Numbered parts are unrelated; each lists some results of a single study.

Study 1
Target: RNA binding protein fox-1 homolog 2, RRM domain, GST-SBP tag (RBFOX2, Homo sapiens, UniProt O43251-10, residues 100-194)
Technique: RNA Bind-n-Seq
Molecule type: RNA
Medium: in vitro
Concentration: 365 nM
Setting: natural RNA segment, single round, ends assumed
Reference: no-protein control
Direction: higher = stronger binding
Strand | RBNS enrichment (R)
GGGAGUUCUACAGUCCGACGAUCAGUUAGCAUUGCUUUAAUGGACUGCAUUUGUCAUUAUCAAGUUACUCUUUCCUUUGUGAGCUGUUAAUCCACAAUUACUGACCAUACUAAUAGUAAGUGUGAUUUGAUUCUGGAAUUCUCGGGUGCCAA | 0.387
GGGAGUUCUACAGUCCGACGAUCAUCUGCGACUCAGUUGAUUGGCUGCUCUCUGAAGAGGAAGAGGAGAAAGCCAGAGAGUCACUCUUACCUCCCUGUCUGCUUACUCACCCACUCUGUCCUUUCCUCACCAAUGGAAUUCUCGGGUGCCAA | 0.426
GGGAGUUCUACAGUCCGACGAUCUUCCCACGGCCCAGUCCUCGCUGCAGUAACCCCUGGGGGCUCUGACCACCUAUGGGGGCCGGGCAGGAGCCUCUGGGGCCUCCACUCCGACAUCAGGACCUGAGAUGACCUGGAAUUCUCGGGUGCCAA | 0.372

Study 2
Target: Interferon regulatory factor 7, full length, phosphomimetic (IRF7, Homo sapiens, UniProt Q92985, residues 1-503, S101K/S471D/S472D/S475D/S476D/S477D/S483D/S484D/S487D)
Sequence of UniProt Q92985 (whole entry, unmodified, looked up): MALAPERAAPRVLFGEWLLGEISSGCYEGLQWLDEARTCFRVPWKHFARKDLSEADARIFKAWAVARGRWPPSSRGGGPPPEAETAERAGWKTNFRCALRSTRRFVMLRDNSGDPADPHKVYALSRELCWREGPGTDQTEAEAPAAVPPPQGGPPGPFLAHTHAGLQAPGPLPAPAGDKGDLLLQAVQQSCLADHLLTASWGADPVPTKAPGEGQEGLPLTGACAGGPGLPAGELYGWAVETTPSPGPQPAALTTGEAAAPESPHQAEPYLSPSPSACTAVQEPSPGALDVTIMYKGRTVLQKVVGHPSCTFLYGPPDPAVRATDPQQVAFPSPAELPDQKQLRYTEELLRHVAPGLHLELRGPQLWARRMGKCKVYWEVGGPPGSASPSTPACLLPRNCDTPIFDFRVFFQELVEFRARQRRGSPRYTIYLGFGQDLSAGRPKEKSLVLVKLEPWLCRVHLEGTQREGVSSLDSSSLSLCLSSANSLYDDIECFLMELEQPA
Technique: protein-binding microarray
Molecule type: double-stranded DNA, one strand shown
Medium: in vitro
Concentration: 250 nM
Setting: 60-bp whole probe
Added: salmon DNA 0.4 mg/ml
Reference: random background probes
Direction: higher = stronger binding
Strand | log fluorescence [z-score]
GCCTAGCACGACGATATCAGTTTCCAGACGTGCTAGGTCTTGATTCGCTTGACGCTGCTG | 0.755
GCCTAGCACTTAGGACTGGGTTTCGCTTAGTGCTAGGTCTTGATTCGCTTGACGCTGCTG | 4.58
GCCTAGCACGACGGACTGGGAACTGGGGACGTGCTAGTCTTGATTCGCTTGACGCTGCTG | -0.599
GCCTAGCACTTATGTTTCGGTATCGGTTAGTGCTAGGTCTTGATTCGCTTGACGCTGCTG | 6.02

Study 3
Target: Transcription factor Sp1 (SP1, Homo sapiens, UniProt P08047, residues 1-785, full length assumed)
Sequence of UniProt P08047 (whole entry, looked up): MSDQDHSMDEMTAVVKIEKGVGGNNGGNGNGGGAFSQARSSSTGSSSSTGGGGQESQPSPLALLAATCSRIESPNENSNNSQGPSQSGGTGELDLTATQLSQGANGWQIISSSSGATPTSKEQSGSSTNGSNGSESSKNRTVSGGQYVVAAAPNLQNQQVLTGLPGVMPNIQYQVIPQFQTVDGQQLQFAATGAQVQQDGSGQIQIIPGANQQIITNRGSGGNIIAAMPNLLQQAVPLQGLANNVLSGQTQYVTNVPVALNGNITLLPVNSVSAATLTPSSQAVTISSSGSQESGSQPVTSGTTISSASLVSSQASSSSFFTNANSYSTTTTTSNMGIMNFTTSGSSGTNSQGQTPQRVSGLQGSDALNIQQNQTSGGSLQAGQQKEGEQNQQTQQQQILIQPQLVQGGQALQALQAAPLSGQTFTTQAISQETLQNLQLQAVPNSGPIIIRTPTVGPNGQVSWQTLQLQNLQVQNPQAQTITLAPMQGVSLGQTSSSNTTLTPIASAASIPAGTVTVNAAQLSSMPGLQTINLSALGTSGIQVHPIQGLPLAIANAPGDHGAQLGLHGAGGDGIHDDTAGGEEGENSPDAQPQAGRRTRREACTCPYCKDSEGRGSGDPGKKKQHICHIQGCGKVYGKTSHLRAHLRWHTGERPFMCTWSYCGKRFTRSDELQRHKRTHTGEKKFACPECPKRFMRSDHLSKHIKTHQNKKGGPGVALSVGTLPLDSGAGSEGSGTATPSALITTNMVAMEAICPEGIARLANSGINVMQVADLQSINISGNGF
Technique: protein-binding microarray
Molecule type: double-stranded DNA, one strand shown
Medium: in vitro
Concentration: not given
Setting: k-mer, scored over probes, only values ≥0.25
Direction: higher = stronger binding
Strand | E-score
CCCCATCC | 0.329
AACCCCAA | 0.254
CCTTGTCA | 0.265

Further values, each from its own experiment
Molecule | target | test | test system | setting | how to read | endpoint | result
PhoQ, residues 284 288 289 292 302 303 TSTLRA | PhoP, residues 12 14 15 18 19 FWNTL (Escherichia coli, UniProt P23836) | Sort-seq, refers to: YFP reporter | E. coli | PhoQ-PhoP variant library, added: 10 µM Mg2+ | reference: high Mg2+ state, higher = stronger signaling | fold induction | 2.38

Repeated from above (study 1):
Strand | RBNS enrichment (R)
GGGAGUUCUACAGUCCGACGAUCUUCCCACGGCCCAGUCCUCGCUGCAGUAACCCCUGGGGGCUCUGACCACCUAUGGGGGCCGGGCAGGAGCCUCUGGGGCCUCCACUCCGACAUCAGGACCUGAGAUGACCUGGAAUUCUCGGGUGCCAA | 0.372
